# Experimental data of several laboratories.
# Each numbered part is a random draw from the data of one study; scales do not carry over between parts. Substitutions count along the parent as printed.

# Block 1 — target: CCND2, cyclin fold, Cln2 fusion (human); technique: yeast growth competition, sequencing; medium: yeast; notes: weak parent motif; baseline: not given; direction: higher = stronger binding
# Parent: BRCA2 docking peptide (human); PSIKRNLLNEFDR; partner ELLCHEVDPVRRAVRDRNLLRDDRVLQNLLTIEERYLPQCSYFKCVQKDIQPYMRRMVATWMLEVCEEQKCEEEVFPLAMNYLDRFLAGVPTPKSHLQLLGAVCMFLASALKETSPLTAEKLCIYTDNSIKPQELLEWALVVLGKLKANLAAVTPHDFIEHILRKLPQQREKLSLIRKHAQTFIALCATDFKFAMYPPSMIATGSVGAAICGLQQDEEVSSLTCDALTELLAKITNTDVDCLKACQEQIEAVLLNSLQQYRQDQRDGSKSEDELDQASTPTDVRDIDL
Change,normalised enrichment score
N9K,0.321
I3C,0.102
F11C,-0.189
I3N,-0.0422
S2H,-0.0215

# Block 2 — technique: protein-binding microarray; form: double-stranded DNA, one strand shown; medium: in vitro; tested at: 940 nM top; notes: 60-bp whole probe; together with: salmon DNA 0.4 mg/ml; baseline: random background probes; direction: higher = stronger binding; shared flanks, not repeated: GCCTAGCAC … GTCTTGATTCGCTTGACGCTGCTG
# Target: Interferon regulatory factor 5, full length, phosphomimetic (IRF5, Homo sapiens, UniProt Q13568-2, residues 1-514, S451D/S453D/S456D/S462D)
Strand,fitted relative affinity
GTCTCTGTTCTTTTCAGTCCGTGCTAG,3.29 z-score
GACGGTATCGGTTATCGGGACGTGCTA,8.59 z-score
TTAGGTCTCGGTCACGGTTAGTGCTAG,4.62 z-score
GCTTCCTCACCTGATGCCTCGTGCTAG,0.134 z-score
TTAGATTTCGGGACTGGATTAGTGCTA,0.608 z-score
GACGGTATCTGGACTGGGGACGTGCTA,0.488 z-score
TCATTTTTAGAAATTTTTACTGTGCTA,0.608 z-score
GTCGGTTTCCTTCTCCTGACGTGCTAG,3.81 z-score

# Block 3 — technique: protein binding microarray; form: double-stranded DNA, one strand shown; medium: in vitro; tested at: not given; baseline: not given; direction: higher = stronger binding
# Target: Histone acetyltransferase KAT6A, both winged helices, GST fusion (KAT6A, Homo sapiens, UniProt Q92794, residues 1-181)
# Notes: 8-mer, flanks averaged, mean of 2 arrays, mostly near background
# Construct (chain): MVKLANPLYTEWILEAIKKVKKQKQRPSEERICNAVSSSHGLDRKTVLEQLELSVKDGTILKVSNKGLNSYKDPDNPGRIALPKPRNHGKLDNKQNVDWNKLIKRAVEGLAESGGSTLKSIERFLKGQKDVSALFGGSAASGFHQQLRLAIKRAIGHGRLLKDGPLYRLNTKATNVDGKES
Strand,E-score
AGTCCCTC,-0.0676
CCGCGCAG,0.336
AATTATTC,-0.0368
AGGACCGC,0.262
AATGGGCC,-0.0735

# Single results of other studies
Substance,target,assay,system,setting,how to read,quantity,result
"PhoQ, residues 284 288 289 292 302 303 NLSRDF","PhoP, residues 12 14 15 18 19 NIMAP (Escherichia coli, UniProt P23836)","Sort-seq, measured: YFP reporter",E. coli,"PhoQ-PhoP variant library, together with: 10 µM Mg2+","baseline: high Mg2+ state, higher = stronger signaling",fold induction,0.942

# Some of these lines once more (block 3):
Strand,E-score
AATTATTC,-0.0368
